Measured values gathered from unrelated publications.
Numbered parts are unrelated; each lists some results of a single study. Positions count from the first letter of the parent shown.

Sample 1
Target: Ras GTPase-activating protein-binding protein 1, full length (G3BP1, Homo sapiens, UniProt Q13283)
UniProt Q13283, sequence (whole entry, looked up): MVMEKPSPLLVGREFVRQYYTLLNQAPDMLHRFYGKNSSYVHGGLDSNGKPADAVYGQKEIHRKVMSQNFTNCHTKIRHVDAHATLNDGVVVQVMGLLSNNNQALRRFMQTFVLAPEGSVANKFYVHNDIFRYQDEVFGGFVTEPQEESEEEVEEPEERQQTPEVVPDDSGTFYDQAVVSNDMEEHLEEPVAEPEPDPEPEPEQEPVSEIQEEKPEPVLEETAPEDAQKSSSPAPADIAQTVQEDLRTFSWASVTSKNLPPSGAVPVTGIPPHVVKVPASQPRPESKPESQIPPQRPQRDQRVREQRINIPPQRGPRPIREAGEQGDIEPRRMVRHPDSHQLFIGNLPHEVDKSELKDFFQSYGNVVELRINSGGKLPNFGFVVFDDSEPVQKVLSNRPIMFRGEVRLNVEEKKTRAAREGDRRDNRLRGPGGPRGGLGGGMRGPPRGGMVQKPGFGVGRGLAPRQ
Method: RNA Bind-n-Seq
Form: RNA
Medium: in vitro
Concentration: 200 nM
Notes: whole 134-nt RNA, ends assumed
With: 150 mM LiCl
Reference: input library
Reading: higher = stronger binding
Each molecule: 7-deaza-guanosine replaces G
| Strand | log2 enrichment |
| --- | --- |
| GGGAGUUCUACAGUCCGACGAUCUCCUGUGCUACACAUCGUAUGUACCGAAUCGGGGUUUGGGGAAAAAGGGGAAAAAGGGGAAAGUAUUAUGUUACGCCGUUCGGAUCUGCAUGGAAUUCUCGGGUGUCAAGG | -0.00954 |
| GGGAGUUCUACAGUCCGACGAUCCCUGUGCUACACAUCGUAUGUACCGAAUCGGGGUUUUUGGGGAAAAAGGGGUUUUUGGGGAAAGUAUUAUGUUACGCCGUUCGGAUCUGCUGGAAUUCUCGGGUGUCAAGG | -0.474 |
| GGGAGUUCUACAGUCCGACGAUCUAACUUUAGAGGAGGAUCUGAUGGAUAUGGCAGUGGACGUGGAUUUGGGGAUGGCUAUAAUGGGUAUGGAGGAGGACCUGGAGGUGGCUAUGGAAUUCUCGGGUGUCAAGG | -0.267 |
| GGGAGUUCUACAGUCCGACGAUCCAAGUCCUGUGCUACACAUCGUAUGUACCGAAUCGGGAAAGGGUGGGAAAAAGGGAAAGUAUUAUGUUACGCCGUUCGGAUCUGCACUUCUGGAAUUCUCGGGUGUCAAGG | -0.571 |
| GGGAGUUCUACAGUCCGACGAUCUUUCCCCUGGAGGGCGCCUCCAUCCUUGGAGGCCUAGUGCCGUCGGAGAGAGAGCGGGAGCCGCGGACAGAGACGCGUGCGCAAUUCGGAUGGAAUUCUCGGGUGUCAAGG | -1.53 |
| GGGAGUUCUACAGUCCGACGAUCGUCCUGUGCUACACAUCGUAUGUACCGAAUCGGGGUUUGGGGAAAGGGGUUUUUGGGGAAAGUAUUAUGUUACGCCGUUCGGAUCUGCACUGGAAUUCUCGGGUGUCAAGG | -0.0687 |
| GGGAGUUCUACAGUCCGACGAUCUCAAGUCCUGUGCUACACAUCGUAUGUACCGAAUCGGUUUUUUUGGUGGAAAGGAAAGUAUUAUGUUACGCCGUUCGGAUCUGCACUUCCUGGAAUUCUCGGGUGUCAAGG | -0.116 |
| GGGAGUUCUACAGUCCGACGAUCAAGUCCUGUGCUACACAUCGUAUGUACCGAAUCGGGGAAAGGGGAGGGGAAAGGGGAAAGUAUUAUGUUACGCCGUUCGGAUCUGCACUUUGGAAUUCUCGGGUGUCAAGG | 0.761 |
| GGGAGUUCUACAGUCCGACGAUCCAAGUCCUGUGCUACACAUCGUAUGUACCGAAUCGGAAAAGGAAAAGGAAAAGGGAAAGUAUUAUGUUACGCCGUUCGGAUCUGCACUUCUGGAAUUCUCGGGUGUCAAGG | -0.618 |
| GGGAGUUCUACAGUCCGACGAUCAAGUCCUGUGCUACACAUCGUAUGUACCGAAUCGGUUUUUUUGGAAAGGUUUUUGGAAAGUAUUAUGUUACGCCGUUCGGAUCUGCACUUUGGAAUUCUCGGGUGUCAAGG | -2.18 |

Sample 2
Target: CCNB1, cyclin fold, Cln2 fusion (human)
Method: yeast growth competition, sequencing
Medium: yeast
Notes: weak parent motif
Reference: not given
Reading: higher = stronger binding
Starting sequence: CDC6 docking peptide (human); TLKGRRLVFDNQL
| Change | normalised enrichment score |
| --- | --- |
| TLGGRRLVFDNQL [K3G] | 0.189 |
| TLKPRRLVFDNQL [G4P] | 0.389 |
| TCKGRRLVFDNQL [L2C] | 0.521 |
| TLRGRRLVFDNQL [K3R] | 0.266 |
| TLFGRRLVFDNQL [K3F] | 0.161 |
| TLKDRRLVFDNQL [G4D] | -0.102 |
| TLKGRRLVFDNFL [Q12F] | 0.00864 |
| TLKGRRLVTDNQL [F9T] | 0.0147 |
| TLKGRRLVFNNQL [D10N] | 1.78 |

Sample 3
Target: CREBL2, bZIP domain (human)
Method: DHFR protein complementation
Medium: yeast
Notes: single substitutions, most at no-binding floor
Reference: wild-type JUN-FOS pair
Reading: higher = stronger binding
Starting sequence: JUN, bZIP domain (human); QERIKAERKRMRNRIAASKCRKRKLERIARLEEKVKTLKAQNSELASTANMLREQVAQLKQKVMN; partner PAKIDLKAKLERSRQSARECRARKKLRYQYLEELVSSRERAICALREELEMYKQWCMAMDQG
| Change | binding fitness |
| --- | --- |
| L45D | -1.53 natural log |
| V56K | -1.58 natural log |
| E32W | -1.57 natural log |
| T37Q | -1.26 natural log |
| A46E | -1.48 natural log |
| Q41K | -1.2 natural log |

Single results of other studies
| Molecule | target | assay | system | conditions | how to read | endpoint | value |
| --- | --- | --- | --- | --- | --- | --- | --- |
| PhoQ, residues 284 288 289 292 302 303 DDMDFR | PhoP, residues 12 14 15 18 19 SPWRL (Escherichia coli, UniProt P23836) | Sort-seq, item: YFP reporter | E. coli | PhoQ-PhoP variant library, with: 10 µM Mg2+ | reference: high Mg2+ state, higher = stronger signaling | fold induction | 0.675 |

Excerpt of the above (sample 2):
| Change | normalised enrichment score |
| --- | --- |
| TCKGRRLVFDNQL [L2C] | 0.521 |
| TLRGRRLVFDNQL [K3R] | 0.266 |
